Experimental data gathered from unrelated publications.
Parts stem from different laboratories: compare values within a part only. Substitutions count along the parent as printed.

Block 1 — technique: competition protein-binding microarray; molecule type: double-stranded DNA, one strand shown; sample: in vitro; tested at: 2 µM; together with: Cbf1 competitor, 0.05 µM; reading: higher = stronger binding; measurement: fluorescence intensity; all sequences stand within: … GTCTTGATTCGCTTGACGCTGCTG
Target: Phosphate system positive regulatory protein PHO4, full length, GST-tagged (PHO4, Saccharomyces cerevisiae, UniProt P07270, residues 1-312)
Notes: whole 60-bp probe, lowest competitor level
Residues (chain): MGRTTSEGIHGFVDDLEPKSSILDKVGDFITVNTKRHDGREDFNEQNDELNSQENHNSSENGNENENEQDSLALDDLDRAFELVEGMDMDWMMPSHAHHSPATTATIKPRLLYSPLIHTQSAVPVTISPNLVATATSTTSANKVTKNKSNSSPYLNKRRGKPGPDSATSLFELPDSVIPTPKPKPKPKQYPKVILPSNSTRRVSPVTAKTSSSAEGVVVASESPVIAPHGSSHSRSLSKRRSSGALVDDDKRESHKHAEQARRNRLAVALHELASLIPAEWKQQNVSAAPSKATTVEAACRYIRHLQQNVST
ACATTGGCATTGGCACTCATGACAATCATTTTGGAA: 5140 a.u.
CTGCCATTGCTGAAGCTCGTGCTTTCGAAGAAAACT: 11900 a.u.
CATCTTCTTACATCGCACGTGATGGTAAACTAGTAA: 21100 a.u.
TCGCACTGAAGCGATCAGCTGATGAACAGGCGGTAC: 2930 a.u.
CGAGATATGGCTAGACACATGGCCACAATAATATCT: 10100 a.u.
CGGGGTTAAGTTTGATTTGTGGGTGGCTTGCAGCAG: 3850 a.u.
GGAGGGCAGTAGTTCCATGTGCTTCTCAGAAGAGCT: 8270 a.u.
CACAGTGTTCCGAGTCACGTGCTGTTTCAGTCCTCC: 16200 a.u.
CATACCCAACCTTGGAAGGTGGGTGAAGATATTTGT: 4930 a.u.
AAATTACTAAGTTGTCACACGACTTACCCCGTATGA: 6420 a.u.
CACCAGCCGCCATTGAACGTGCAAACAGGCACCTGT: 10300 a.u.
TCTCCATGGCTGAGACTTGTGTGTATCTCACAGTGG: 4740 a.u.
TCAGTATAGCAGCGACGCGTGGGTATCAGGAAGAAT: 9750 a.u.
CTTCTGTAAATTTGTGTAGTGGGTGGACGCGCCCCG: 5360 a.u.

Block 2 — technique: RNA Bind-n-Seq; molecule type: RNA; sample: in vitro; tested at: not given; notes: RNA with constant flanks, ends assumed; baseline: input RNA pool; reading: higher = stronger binding; measurement: bound/input enrichment
Target: RING finger protein unkempt homolog, zinc fingers 1-6, GST-SBP tag (UNK, Homo sapiens, UniProt Q9C0B0, residues 30-357)
Sequence of UniProt Q9C0B0 (30-357, looked up): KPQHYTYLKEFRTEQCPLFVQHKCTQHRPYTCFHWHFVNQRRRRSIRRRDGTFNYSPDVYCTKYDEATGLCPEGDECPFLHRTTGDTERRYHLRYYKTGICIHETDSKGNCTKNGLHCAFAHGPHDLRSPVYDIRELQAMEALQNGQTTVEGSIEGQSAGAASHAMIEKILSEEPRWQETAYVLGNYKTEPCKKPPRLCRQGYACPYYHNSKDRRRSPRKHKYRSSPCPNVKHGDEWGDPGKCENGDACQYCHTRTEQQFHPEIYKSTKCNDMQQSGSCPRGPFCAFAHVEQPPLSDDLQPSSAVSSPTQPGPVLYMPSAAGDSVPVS
All sequences stand within: GGGAGUUCUACAGUCCGACGAUC … CAACAGAGGAUUGAGCAUCA
GCUUUACUUUCAGAAAAUGUUUUAGGGUAACUGCAUAAGACUAUGCAAUAAUUUUUAAUCAUCCGUAUUGAUGGUGUAUUAAAAGUUGUUGUACUUUGUCUGUGACCUUAAUUUUCUGCA: 0.195 ratio
AAAAUGUUUAUCGGUGGACUGAGCUGGCAGACCUCACCAGAUAGCCUUAGAGACUAUUUCCGCAAAUUUGGAGAAAUUAGAGAAUGUAUGGUCAUGAGAGAUCCCACUACGAAACGCUCC: 2.02 ratio
CUCUUCCUCCUGCCCCUGGUUCCCUCCUCUCCUCCCACCCCCACAACCAGUACCAAUGUACACCGUAAUUGUAAUGUUUUAGACUUUACAGAAACUUUCCUGUAUUCUGUAUAUAAAAAA: 0.771 ratio
UACACAAAAAGUUGUGUCAUAACUUACCCAGAUAUGUUUUUCUAUCAUUUGAAACCUUUUCCGCUACUGUUUGUUUUCAUUCAACUAACAAACAUAUUCCAAUAAUAAAAGCAGUAUAUA: 0.609 ratio
GCUAUCUAUGUCCAAGCAUUGAUAUUUCGCCUAGAAGGAAAUAUCCAAGAAUCCCCCGAACUCUUCCAGACAUGUGCAGUUCUUAGUCCUCAGAGUGCUGAUAACCUCAAGCAGGUGGCC: 0.468 ratio

Block 3 — technique: protein-binding microarray; molecule type: double-stranded DNA, one strand shown; sample: in vitro; tested at: 2540 nM top; notes: 60-bp whole probe; together with: salmon DNA 0.4 mg/ml; baseline: random background probes; reading: higher = stronger binding; measurement: fitted relative affinity; all sequences stand within: GCCTAGCAC … GTCTTGATTCGCTTGACGCTGCTG
Target: Interferon regulatory factor 3, full length, phosphomimetic (IRF3, Homo sapiens, UniProt Q14653, residues 1-427, S386D/S396D/S398D/S402D/T404D/S405D)
Target sequence (chain): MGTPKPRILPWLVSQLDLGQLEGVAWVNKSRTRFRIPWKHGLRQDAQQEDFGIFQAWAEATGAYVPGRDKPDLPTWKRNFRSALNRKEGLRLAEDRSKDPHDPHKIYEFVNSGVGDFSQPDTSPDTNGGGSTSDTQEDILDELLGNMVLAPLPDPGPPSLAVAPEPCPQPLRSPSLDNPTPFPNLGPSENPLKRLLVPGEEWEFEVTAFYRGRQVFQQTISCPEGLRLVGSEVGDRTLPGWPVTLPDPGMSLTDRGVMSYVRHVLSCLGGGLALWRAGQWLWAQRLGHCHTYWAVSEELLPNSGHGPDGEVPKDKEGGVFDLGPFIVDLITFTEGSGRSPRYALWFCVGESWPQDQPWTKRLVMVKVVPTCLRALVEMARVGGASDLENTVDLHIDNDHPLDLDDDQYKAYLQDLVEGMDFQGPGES
TCCATTTCTGTTTTTGCTTTGTGCTAG: 3.9 z-score
TCAGTTTTCCTTATTGCACTGTGCTAG: 5.39 z-score
TCAGGTTTCGGGACTGGGTTAGTGCTA: 4.31 z-score
TCAAATTTTAATAACACACTGTGCTAG: -0.0349 z-score
GACGGACTTCTTCTCCTGACGTGCTAG: 0.391 z-score
ATTGCTTCCTCTTTTTTGTTGTGCTAG: 0.858 z-score
TCTTGTCTGGATGTGCCTTAGTGCTAG: 0.102 z-score
AAAGATTTATCAAATGTGGGAGTGCTA: -0.396 z-score
GACGGTAACCTACTGCTGACGTGCTAG: 0.145 z-score
TCACATCTTCCTCTGCCACTGTGCTAG: 0.974 z-score
TTAGATATAGGGACTGGATTAGTGCTA: -0.538 z-score
GACGGTTGCCTTTCCCTGACGTGCTAG: 5.18 z-score
TTAGGACTGGACACTGGGGTAGTGCTA: -0.864 z-score
TCAAATACAAGTTTCTCACTGTGCTAG: 0.798 z-score
AGAGAGAGTGAGGAACAACAGTGCTAG: -0.706 z-score
ATAGGTATCGGTCTCGGTTAGTGCTAG: 4.63 z-score
GACGGTCTCGGTCTCGTGACGTGCTAG: 1.35 z-score

Block 4 — technique: universal PBM; molecule type: double-stranded DNA, one strand shown; sample: in vitro; tested at: not given; reading: higher = stronger binding; measurement: E-score
Target: Sal-like protein 4, full length isoform B (SALL4, Homo sapiens, UniProt Q9UJQ4-2, residues 1-616)
Notes: 8-mer, flanks averaged, mean of replicates
Residues (chain): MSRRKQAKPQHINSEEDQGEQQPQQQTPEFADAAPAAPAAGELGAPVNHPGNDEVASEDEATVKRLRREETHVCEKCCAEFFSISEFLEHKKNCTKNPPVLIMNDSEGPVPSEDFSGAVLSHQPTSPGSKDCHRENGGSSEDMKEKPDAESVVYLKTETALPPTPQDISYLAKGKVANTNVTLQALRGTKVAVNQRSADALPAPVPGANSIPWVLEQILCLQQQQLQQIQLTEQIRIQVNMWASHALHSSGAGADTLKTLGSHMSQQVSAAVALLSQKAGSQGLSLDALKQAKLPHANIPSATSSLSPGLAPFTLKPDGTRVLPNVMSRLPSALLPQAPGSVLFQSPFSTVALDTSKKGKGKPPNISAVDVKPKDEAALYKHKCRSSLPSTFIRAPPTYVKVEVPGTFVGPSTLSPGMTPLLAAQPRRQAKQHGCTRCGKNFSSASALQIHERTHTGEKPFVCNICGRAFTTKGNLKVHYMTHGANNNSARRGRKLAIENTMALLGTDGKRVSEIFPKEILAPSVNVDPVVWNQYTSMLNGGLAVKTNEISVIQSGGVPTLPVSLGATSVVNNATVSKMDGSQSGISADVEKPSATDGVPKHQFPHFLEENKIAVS
AGACGTTC: -0.0673
ACGGCCGT: -0.388
AACCGACC: -0.254
CATTAACC: 0.131
GCAAATTA: 0.174
AGCTGGAC: -0.082
GCAACATA: 0.217
AGCTCCTC: -0.174
GAAATAAA: 0.27
CCAAGGGC: -0.166
CCTCGGCG: -0.374
CAGACTAG: -0.228
CATCGGAG: -0.178
ATGTAGCG: 0.00246
AGACTGGC: -0.18
AACCGCAA: -0.0436
AGAAAAAA: 0.226
ACGCAAAA: 0.0173
AGCACGGC: -0.233
CAGCTTAG: -0.154
CCCGCAGA: -0.182
GATTTGGC: -0.00165
CGGATAAA: 0.173

Block 5 — technique: RNA Bind-n-Seq; molecule type: RNA; sample: in vitro; tested at: 365 nM; baseline: no-protein control; reading: higher = stronger binding; measurement: RBNS enrichment (R)
Target: RNA binding protein fox-1 homolog 2, RRM domain, GST-SBP tag (RBFOX2, Homo sapiens, UniProt O43251-10, residues 100-194)
Notes: natural RNA segment, single round, ends assumed
All sequences stand within: GGGAGUUCUACAGUCCGACGAUC … UGGAAUUCUCGGGUGCCAA
Construct (chain): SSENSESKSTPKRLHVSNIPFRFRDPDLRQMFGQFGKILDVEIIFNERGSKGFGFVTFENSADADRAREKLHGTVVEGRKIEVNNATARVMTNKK
UUCCAAGUGUGGUUACAAAUGAACCCAUGGAAUGAUGACUUCAUGUUCUUCUCGUGGGUUUGUGCCGUGCUGCUUUCCAAAUAGGUAUUGAAUUUAUGCAUUAGUCUGGU: 0.288
AGAGAGAGAAGUACCACUGUGGCUAGAUAUAUACACACACAUAUAUAUAUGGAUGGAUGUAAUAUAUGUAGAACACACACAUAGAUGUAUAUAGGAUACACACUCAUGUA: 0.556
GUUAUCAGGGAAGCUUGCUCUGCCAGGCUGCUCCAGGAUGCCAGCUUGUCUCUGACUCGGUUGAGGUCCAUGCUCUGACUUUCUGCACCCUCGUGCUAGGCGAUUCGUGU: 0.52
GGCUUAAAUUGGGAGUCAAGGACUAUAGUCAGGAGACCCCCAGGUACCUGGUUCAGAGCAGUCCGGGAUGAUAGGACGAGAUCCUAAAGUUCUUUCAGGGAGCUCUGCCA: 0.288
GAAAUUCAGUUAUAAAGUCAAGGACGAAUUUGCACAGUGAUAUAUUUCUAUGUGUAUGCAAGUACAAGUAUAUAAUAUGUCACCUGGCACAUUCAUUUUCUCAGUUGAAG: 0.216
UUCCUCUGAAAUGGAUAUAAAGAUGUAAAUUUUAUAACAGCACUGUUUAUUCUGAUGCAUUCUGAUGGGUCAGUGUCGUGUCAUUAAUUAAUAAAGGCAUUUUCUUCUCA: 1.66
AUUCUCUUCUAGUGUUUGCUUAAAAUAUGUGAAGUUUUUCUUGCUAUUUCAAUAACAAAUGGUGCUGCUAACACCCAACAUUUCCUAAAUUAUUUUCUAUCAUACAGUUU: 0.852
AACCAGAUUGAUCCAAUUGGCCAUGGGAGCUUAGGCCAUAGUCUUGGAAGUGAGCAGGACAAAGACCAUGUUUUAGAGAUGUGAUAACUUCCUAGGACUAAGUUUACUAA: 0.409
UAAAAAUAUUCAUCUACCAUUACUGUUAUUUGCUGAUUUUGUUUUAUUUUUUGAUGGUAAUAUUCUAUCCUUAUGACACUAUUGCAACCAAAUUGGCUUUACCAUCUUGG: 1.24

Block 6 — target: CCNE2, cyclin fold, Cln2 fusion (human); technique: yeast growth competition, sequencing; sample: yeast; notes: weak parent motif; baseline: not given; reading: higher = stronger binding; measurement: normalised enrichment score
Parent: SGO1 docking peptide (human); PLAKRALKYTDEK; partner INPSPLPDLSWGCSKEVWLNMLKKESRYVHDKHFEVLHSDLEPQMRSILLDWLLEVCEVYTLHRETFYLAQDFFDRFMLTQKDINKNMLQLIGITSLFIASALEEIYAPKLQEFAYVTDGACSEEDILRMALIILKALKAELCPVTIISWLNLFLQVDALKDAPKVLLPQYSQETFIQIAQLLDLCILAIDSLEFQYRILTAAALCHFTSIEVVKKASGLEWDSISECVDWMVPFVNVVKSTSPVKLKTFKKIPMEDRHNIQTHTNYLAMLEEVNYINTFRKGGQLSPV
K13A: 0.157
K8A: 0.294
K4A: 0.374
T10A: 0.765
R5A: 0.0771

Block 7 — technique: protein binding microarray; molecule type: double-stranded DNA, one strand shown; sample: in vitro; tested at: not given; baseline: not given; reading: higher = stronger binding; measurement: E-score
Target: Histone acetyltransferase KAT6A, winged helix 1, GST fusion (KAT6A, Homo sapiens, UniProt Q92794, residues 1-85)
Notes: 8-mer, flanks averaged, mean of 2 arrays, mostly near background
Target sequence (chain): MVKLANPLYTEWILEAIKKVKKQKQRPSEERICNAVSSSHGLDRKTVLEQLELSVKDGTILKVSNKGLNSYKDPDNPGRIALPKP
ACTTCCGC: 0.254
ATCACCGC: 0.288
AAAGAACC: -0.0368
CAGCGCCG: 0.445
ACTCGGAC: -0.00468
CCATTCTA: -0.201
CCCCTGAA: 0.0142
CCGATAAA: -0.0311
TGCAAGCA: -0.00261
GTTTTAAA: -0.147
AATTCAGT: -0.112
AAACTGCT: 0.0449
CAGTTATA: -0.108
AGCGGAAC: 0.31
AGCTGTTA: -0.121
TAGAATCA: -0.208

Some of these lines once more (block 4):
CCTCGGCG: -0.374
GATTTGGC: -0.00165
CAGCTTAG: -0.154
AACCGCAA: -0.0436
CCCGCAGA: -0.182
GCAAATTA: 0.174
CGGATAAA: 0.173
